Measurements of several laboratories.
Compare with care: the assays were run in different laboratories.
UniProt Q6P5Z2, sequence (whole entry, looked up): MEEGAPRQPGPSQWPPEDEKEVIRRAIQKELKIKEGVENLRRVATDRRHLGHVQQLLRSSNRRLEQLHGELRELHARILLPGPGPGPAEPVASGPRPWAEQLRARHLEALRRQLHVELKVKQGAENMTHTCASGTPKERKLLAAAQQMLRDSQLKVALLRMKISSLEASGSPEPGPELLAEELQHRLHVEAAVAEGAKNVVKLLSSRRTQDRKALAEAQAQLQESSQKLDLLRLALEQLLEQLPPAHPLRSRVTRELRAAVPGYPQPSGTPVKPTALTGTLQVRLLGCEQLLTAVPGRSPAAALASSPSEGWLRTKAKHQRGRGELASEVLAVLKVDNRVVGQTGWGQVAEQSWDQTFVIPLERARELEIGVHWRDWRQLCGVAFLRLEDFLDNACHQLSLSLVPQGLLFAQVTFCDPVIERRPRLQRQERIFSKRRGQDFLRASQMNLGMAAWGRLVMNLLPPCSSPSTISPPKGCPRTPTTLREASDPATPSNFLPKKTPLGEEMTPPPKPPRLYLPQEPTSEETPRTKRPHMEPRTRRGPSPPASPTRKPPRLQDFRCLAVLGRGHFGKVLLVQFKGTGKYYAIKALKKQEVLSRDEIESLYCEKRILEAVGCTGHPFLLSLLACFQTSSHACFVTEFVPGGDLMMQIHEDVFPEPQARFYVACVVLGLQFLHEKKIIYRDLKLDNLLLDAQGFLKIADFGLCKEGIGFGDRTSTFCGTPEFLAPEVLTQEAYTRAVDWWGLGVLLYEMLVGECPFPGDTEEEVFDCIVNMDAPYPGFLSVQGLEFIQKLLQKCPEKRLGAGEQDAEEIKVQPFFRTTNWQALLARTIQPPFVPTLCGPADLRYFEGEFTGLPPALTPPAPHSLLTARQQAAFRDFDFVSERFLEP
UniProt Q13464, sequence (whole entry, looked up): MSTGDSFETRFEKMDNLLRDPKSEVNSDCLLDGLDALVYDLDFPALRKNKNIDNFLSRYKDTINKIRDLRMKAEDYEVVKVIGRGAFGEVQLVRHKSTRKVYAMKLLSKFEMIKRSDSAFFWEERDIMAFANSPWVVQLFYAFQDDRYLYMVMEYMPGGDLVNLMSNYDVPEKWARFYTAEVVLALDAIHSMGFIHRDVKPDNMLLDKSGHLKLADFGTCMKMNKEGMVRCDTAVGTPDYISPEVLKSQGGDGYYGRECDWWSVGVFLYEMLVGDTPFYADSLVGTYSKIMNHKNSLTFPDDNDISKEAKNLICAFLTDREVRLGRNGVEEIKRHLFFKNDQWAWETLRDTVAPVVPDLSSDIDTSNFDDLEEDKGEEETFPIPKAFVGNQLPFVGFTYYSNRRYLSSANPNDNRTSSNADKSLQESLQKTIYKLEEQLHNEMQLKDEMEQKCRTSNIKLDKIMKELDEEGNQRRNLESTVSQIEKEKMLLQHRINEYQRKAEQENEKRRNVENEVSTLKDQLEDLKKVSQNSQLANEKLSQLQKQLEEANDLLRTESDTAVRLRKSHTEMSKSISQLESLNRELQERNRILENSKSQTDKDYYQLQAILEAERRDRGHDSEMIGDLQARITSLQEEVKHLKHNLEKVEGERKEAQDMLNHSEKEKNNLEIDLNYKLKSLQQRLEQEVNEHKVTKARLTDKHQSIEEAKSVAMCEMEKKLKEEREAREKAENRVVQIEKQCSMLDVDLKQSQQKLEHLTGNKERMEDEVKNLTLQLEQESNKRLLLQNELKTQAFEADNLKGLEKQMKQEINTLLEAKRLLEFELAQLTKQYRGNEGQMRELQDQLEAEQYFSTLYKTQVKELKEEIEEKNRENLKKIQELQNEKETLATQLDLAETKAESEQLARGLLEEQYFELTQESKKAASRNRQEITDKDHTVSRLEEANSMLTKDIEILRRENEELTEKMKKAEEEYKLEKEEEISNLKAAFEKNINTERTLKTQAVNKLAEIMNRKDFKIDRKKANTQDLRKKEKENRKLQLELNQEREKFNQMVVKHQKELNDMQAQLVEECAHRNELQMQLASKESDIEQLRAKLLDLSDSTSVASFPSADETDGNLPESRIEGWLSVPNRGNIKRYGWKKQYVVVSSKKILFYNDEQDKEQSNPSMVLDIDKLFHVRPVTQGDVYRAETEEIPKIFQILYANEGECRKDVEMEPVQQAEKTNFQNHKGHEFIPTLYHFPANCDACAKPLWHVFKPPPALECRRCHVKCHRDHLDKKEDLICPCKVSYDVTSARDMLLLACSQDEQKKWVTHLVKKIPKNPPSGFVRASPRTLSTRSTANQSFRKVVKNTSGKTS
UniProt Q16644, sequence (whole entry, looked up): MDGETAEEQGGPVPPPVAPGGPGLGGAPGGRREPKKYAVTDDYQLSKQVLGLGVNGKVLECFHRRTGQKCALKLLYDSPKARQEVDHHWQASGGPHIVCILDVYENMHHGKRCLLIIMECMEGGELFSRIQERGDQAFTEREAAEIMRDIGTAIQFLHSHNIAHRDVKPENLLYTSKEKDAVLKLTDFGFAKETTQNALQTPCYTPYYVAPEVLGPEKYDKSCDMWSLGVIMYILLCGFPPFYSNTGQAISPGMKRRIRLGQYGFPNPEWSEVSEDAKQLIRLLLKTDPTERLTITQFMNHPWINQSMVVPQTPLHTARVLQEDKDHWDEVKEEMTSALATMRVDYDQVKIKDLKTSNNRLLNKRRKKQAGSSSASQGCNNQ
UniProt P29597, sequence (whole entry, looked up): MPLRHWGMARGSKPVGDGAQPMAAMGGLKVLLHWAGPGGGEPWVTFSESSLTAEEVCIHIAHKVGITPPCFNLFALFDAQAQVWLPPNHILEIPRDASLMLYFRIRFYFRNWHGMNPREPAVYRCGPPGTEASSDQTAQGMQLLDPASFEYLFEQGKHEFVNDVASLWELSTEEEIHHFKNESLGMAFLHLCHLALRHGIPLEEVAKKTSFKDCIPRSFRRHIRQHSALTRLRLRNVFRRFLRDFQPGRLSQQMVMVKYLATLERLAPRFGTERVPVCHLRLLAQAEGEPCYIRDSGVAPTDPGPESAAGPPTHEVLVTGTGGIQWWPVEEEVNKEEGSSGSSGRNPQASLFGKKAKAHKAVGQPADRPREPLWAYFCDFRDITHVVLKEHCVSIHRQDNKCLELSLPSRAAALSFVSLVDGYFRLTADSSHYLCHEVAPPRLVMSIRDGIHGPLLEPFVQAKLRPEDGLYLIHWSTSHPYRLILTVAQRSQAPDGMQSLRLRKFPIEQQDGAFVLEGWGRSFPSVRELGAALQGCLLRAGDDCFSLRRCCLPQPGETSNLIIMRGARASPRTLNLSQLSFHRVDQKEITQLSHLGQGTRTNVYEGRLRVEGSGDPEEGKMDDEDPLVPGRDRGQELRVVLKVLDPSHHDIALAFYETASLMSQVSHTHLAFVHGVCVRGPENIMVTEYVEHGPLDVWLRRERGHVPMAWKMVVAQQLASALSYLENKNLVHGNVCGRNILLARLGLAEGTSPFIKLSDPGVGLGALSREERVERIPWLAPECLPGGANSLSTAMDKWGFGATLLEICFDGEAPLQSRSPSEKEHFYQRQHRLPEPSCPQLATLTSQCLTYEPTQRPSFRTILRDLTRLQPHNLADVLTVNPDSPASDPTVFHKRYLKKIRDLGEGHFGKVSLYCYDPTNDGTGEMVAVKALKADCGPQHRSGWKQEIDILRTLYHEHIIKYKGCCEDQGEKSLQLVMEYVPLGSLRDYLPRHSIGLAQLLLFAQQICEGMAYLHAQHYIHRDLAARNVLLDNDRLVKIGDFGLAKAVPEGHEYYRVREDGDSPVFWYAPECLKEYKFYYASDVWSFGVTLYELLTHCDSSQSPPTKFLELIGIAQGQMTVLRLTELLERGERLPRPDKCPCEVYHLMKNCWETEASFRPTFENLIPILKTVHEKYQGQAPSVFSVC

Structure (SMILES) | target or system | assay | system | setting | measurement | result
COc1ccc2c(=O)n(C)c(-c3ccccc3)nc2c1 | – | – | male Sprague-Dawley rat, spleen | oral, 30 mg/kg, 15 min, single dose | concentration | 82.8 ng/g
Cc1noc(C)c1Cn1cc(N2C(=O)CN(Cc3cccc(O)c3)C2=O)cn1 | – | – | male Sprague-Dawley rat, plasma | intravenous, 1 mg/kg, 15 min | concentration | 124 ng/mL
Cc1cc([C@@H](C)Nc2ccccc2C(=O)O)c2nc(N3CCC(F)(F)CC3)c(C#N)c(=O)n2c1 | Non-receptor tyrosine-protein kinase TYK2, JH1 (TYK2, Homo sapiens, UniProt P29597) | binding, competition with immobilised ligand | – | 10 µM | remaining binding | 90%
C=CC(=O)N1CCC(COCC(=O)N2CCN(c3nc(-c4cnc(N)nc4C(F)F)nc(N4CCOC[C@@H]4C)n3)CC2)CC1 | Rho-associated protein kinase 1 (ROCK1, Homo sapiens, UniProt Q13464) | binding, competition with immobilised ligand | – | 1 µM | remaining binding | 100%
COc1cccc(-c2n[nH]c(SCc3ccccn3)n2)c1OC | – | – | male Sprague-Dawley rat, plasma | oral, 100 mg/kg, 8 h, single dose | concentration | 3110 ng/mL
CCc1cc(-c2noc(-c3cc(OC)nc(C4CCCC4)c3)n2)cc(C)c1OC[C@@H](O)CO | – | – | Wistar rat, plasma | oral, 3 mg/kg, 24 h, single dose | concentration | 78 ng/mL
O=Cc1cc2c(cc1F)C(=O)N(C1CCC(=O)NC1=O)C2 (stereo not drawn) | – | – | male CD-1 mouse, plasma | intravenous, 1 mg/kg, 4.98 min | concentration | 7.1 ng/mL
COc1cc(-c2cncc3c2CN(C)Cc2cc(N4CCNCC4)ccc2-3)cc(OC)c1OC | MAP kinase-activated protein kinase 3 (MAPKAPK3, Homo sapiens, UniProt Q16644) | enzyme activity, inhibitor | – | 1 µM | remaining activity | 114%
O=c1nc(N2CCN(CC3CCCCC3)CC2)sc2c([N+](=O)[O-])cc(C(F)(F)F)cc12 | – | – | CD-1 mouse, lung | intravenous, 10 mg/kg, 8 h | concentration | 534 ng/mL
CCOC(=O)[C@@]12C[C@@H]1[C@@H](n1ccc3c(NC)nc(C#Cc4ccc(Cl)s4)nc31)[C@H](O)[C@@H]2O | – | – | male Sprague-Dawley rat, plasma | intravenous, 0.5 mg/kg, 1 h | concentration | 9.69 ng/mL
NCc1cc2c(cc1F)C(=O)N(C1CCC(=O)NC1=O)C2 (stereo not drawn) | – | – | male CD-1 mouse, plasma | oral, 10 mg/kg, 19.8 min | concentration | 88.6 ng/mL
CNc1ncc2c(/C=C/C(=O)N3CCC(OC)CC3)nn(Cc3cccc(C(F)(F)F)c3)c2n1 | Serine/threonine-protein kinase N3 (PKN3, Homo sapiens, UniProt Q6P5Z2) | enzyme activity, inhibitor, radiometric | – | 1 µM | remaining activity | 86%

For quick reference, copied from above:
Structure (SMILES) | target or system | assay | system | setting | measurement | result
C=CC(=O)N1CCC(COCC(=O)N2CCN(c3nc(-c4cnc(N)nc4C(F)F)nc(N4CCOC[C@@H]4C)n3)CC2)CC1 | Rho-associated protein kinase 1 (ROCK1, Homo sapiens, UniProt Q13464) | binding, competition with immobilised ligand | – | 1 µM | remaining binding | 100%
Cc1cc([C@@H](C)Nc2ccccc2C(=O)O)c2nc(N3CCC(F)(F)CC3)c(C#N)c(=O)n2c1 | Non-receptor tyrosine-protein kinase TYK2, JH1 (TYK2, Homo sapiens, UniProt P29597) | binding, competition with immobilised ligand | – | 10 µM | remaining binding | 90%
